Published values collected from several papers.
Each numbered part is a random draw from the data of one study; scales do not carry over between parts.

Set 1 — target: Sox, HMG box (Pigoraptor chileana); technique: Spec-seq; form: double-stranded DNA, one strand shown; medium: in vitro; tested at: not given; notes: whole probe, mean of replicates; relative to: not given; reading: lower = stronger binding; quantity: relative binding energy; constant ends, left off below: GAGTCGTCTCGTCAGCAC … CCGTAGAGCACTCAGGTC
Construct (chain): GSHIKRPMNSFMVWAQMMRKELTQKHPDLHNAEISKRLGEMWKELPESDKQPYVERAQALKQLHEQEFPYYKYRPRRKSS
CAGCGTT: 1.19 ln ratio
CATGCTA: 0.539 ln ratio
GGTTGTT: -0.87 ln ratio
TACCGTT: 0.195 ln ratio
CATAGTG: -0.523 ln ratio

Set 2 — technique: aptamer microarray, sandwich; form: DNA with 2'F-ANA; medium: in vitro; tested at: 200 nM; together with: Cy3 exosite-II aptamer, 400 nM; reading: higher = stronger binding; quantity: mean fluorescence intensity; strand: GGTTGGTGTGGTTGG
Target: Prothrombin, mature alpha-thrombin (F2, Homo sapiens, UniProt P00734)
Notes: whole 15-mer aptamer, many near background
2'F-ANA at 4 10 11: 86.8 a.u.
2'F-ANA at 1 2 11: 142 a.u.
2'F-ANA at 3 4 6 7 13 15: 484 a.u.
2'F-ANA at 1 2 3 4 5 6 7 8 9 10 13: 54.7 a.u.
2'F-ANA at 1 2 5 6 8 9 13: 60.4 a.u.
2'F-ANA at 6 9 12 13 15: 544 a.u.
2'F-ANA at 1 2 8 13 14 15: 56.8 a.u.

Set 3 — technique: universal PBM; form: double-stranded DNA, one strand shown; medium: in vitro; tested at: 600 nM; reading: higher = stronger binding; quantity: E-score
Target: Sal-like protein 4, full length isoform A (SALL4, Homo sapiens, UniProt Q9UJQ4, residues 1-1053)
Chain of UniProt Q9UJQ4 (whole entry, looked up): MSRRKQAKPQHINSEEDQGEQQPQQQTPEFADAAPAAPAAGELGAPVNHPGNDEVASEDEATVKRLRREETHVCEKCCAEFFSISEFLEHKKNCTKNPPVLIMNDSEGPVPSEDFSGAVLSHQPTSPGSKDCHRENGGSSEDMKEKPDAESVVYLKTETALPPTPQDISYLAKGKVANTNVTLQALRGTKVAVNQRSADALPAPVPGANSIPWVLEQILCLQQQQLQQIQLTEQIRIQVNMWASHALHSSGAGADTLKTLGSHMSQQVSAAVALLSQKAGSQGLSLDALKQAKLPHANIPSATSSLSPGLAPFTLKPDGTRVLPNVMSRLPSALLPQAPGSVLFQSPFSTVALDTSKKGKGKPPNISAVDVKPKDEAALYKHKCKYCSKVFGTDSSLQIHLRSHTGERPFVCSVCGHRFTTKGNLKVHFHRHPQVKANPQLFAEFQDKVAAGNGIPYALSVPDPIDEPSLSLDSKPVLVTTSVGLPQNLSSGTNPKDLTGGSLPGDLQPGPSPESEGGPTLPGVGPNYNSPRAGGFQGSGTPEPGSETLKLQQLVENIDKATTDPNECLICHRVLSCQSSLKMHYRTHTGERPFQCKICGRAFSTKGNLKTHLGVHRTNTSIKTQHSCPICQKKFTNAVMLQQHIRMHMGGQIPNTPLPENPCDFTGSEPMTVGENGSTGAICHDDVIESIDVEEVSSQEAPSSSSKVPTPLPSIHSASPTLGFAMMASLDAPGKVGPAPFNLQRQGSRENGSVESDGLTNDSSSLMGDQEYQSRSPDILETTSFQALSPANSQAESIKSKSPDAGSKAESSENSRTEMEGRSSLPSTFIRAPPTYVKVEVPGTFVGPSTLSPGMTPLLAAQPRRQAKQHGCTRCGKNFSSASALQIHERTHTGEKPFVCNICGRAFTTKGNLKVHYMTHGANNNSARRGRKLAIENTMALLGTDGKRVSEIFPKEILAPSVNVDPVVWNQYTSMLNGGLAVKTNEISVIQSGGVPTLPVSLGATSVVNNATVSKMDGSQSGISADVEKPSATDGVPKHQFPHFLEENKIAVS
Notes: 8-mer, flanks averaged, mean of replicates
GGCGTTAC: -0.204
AGGGTATC: -0.0936
GCGCGATA: -0.00766
AACAAGGA: 0.195
CTGGCTTA: -0.107
GCAGTGTA: 0.0123

Single results of other studies
PhoQ, residues 284 288 289 292 302 303 SVHLDV
fold induction (PhoP, residues 12 14 15 18 19 SQCLL (Escherichia coli, UniProt P23836); Sort-seq, item: YFP reporter; E. coli; PhoQ-PhoP variant library, together with: 10 µM Mg2+; relative to: high Mg2+ state, higher = stronger signaling): 15.8
